Published values pooled from the literature.
Numbered parts are unrelated; each lists some results of a single study.

Sample 1
Target: Fragile X messenger ribonucleoprotein 1, C-terminal low-complexity region (Fmr1, Mus musculus, UniProt P35922)
Method: RNA Bind-n-Seq
Form: RNA
Medium: in vitro
Concentration: 200 nM
Setting: whole 134-nt RNA, ends assumed
With: 150 mM KCl
Baseline: input library
Direction: higher = stronger binding
For `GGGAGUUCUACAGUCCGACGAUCCCUGUGCUACACAUCGUAUGUACCGAAUCGGGCCCCCCGGGGCCCCCCGGGGCCCCCCGGAAAGUAUUAUGUUACGCCGUUCGGAUCUGCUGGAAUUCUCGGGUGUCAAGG`, the log2 enrichment was -0.842.
`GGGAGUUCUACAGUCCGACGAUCCACAGACAACACGCACCCACACAGACACAGAGGGAAGGGGUUGGGAUGGGUACAGGGUGCACAGCAGGGCGGGGUAGGACCCCAGCCCCUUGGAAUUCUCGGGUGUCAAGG` has a log2 enrichment of 1.32.
`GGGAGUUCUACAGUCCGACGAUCACCAUGCAGGUGGGCAUCUUUGGGAAGUGGGGCAAGUGGGGGAUAGGGAGGGGGGUAACACUUUGGGAACAGGUGGUCCCAGGUCGUUUCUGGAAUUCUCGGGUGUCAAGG` gave a log2 enrichment of 0.762.
`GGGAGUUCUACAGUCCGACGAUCAAGUCCUGUGCUACACAUCGUAUGUACCGAAUCGGAAAAAAAGGAAAAAGGUUUGGAAAGUAUUAUGUUACGCCGUUCGGAUCUGCACUUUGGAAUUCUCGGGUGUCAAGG` gave a log2 enrichment of -1.44.
The log2 enrichment of `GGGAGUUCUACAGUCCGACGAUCACCAUGCAGGUGGGCAUCUUUGGGAAGUGGGGCAAGGGGGGGAUAGGGAGGGGGAAAACACUUUGGGAACAGGUGGUCCCAGGUCGUUUCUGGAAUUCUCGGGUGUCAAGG` is reported as 0.664.
For `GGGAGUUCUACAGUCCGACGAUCUAACUUUAGAGGAGGAUCUGAUGCAUAUGGCAGUGGACGUGGAUUUGGGGAUGGCUAUAAUGGGUAUGGAGGAGGACCUGGAGGUGGCAAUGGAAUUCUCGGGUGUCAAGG`, the log2 enrichment was 0.498.
With `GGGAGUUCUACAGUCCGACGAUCUGGCCCUGGUGGCAUGCGGGGAGGAAGAGGUGGCCUCAUGGAUCGUGGUGGUCCCGGUGGAAUGUUCAGAGGUGGCCGUGGAGGAGACAGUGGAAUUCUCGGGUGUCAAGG` the log2 enrichment was -0.0381.
For `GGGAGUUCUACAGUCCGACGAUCAGUCCUGUGCUACACAUCGUAUGUACCGAAUCGGGGUUUGGGGUUUUUGGGGUGGGGAAAGUAUUAUGUUACGCCGUUCGGAUCUGCACUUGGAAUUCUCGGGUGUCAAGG`, the log2 enrichment was 1.2.
With `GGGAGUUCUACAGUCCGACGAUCACCAUGCAGGUGGGCAUCUUUGGGAAGUGGGGCAAGGGGGGGAUAGGGAGGGGGGUAACACUUUGCGAACAGGUGGUCCCAGGUCGUUUCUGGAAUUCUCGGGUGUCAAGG` the log2 enrichment was 1.04.
`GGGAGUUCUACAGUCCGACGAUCCACAGACAACACGCACCCACACAGACACAGAGGGAAGGGGUUGGGAUGGGGACAGGGUGCACAGCAGGGCGGGGUAGGACUCCAGCCCCUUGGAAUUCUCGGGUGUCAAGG` has a log2 enrichment of 1.11.

Sample 2
Target: Histone acetyltransferase KAT6A, winged helix 1, GST fusion (KAT6A, Homo sapiens, UniProt Q92794, residues 1-85)
Method: protein binding microarray
Form: double-stranded DNA, one strand shown
Medium: in vitro
Concentration: not given
Setting: 8-mer, flanks averaged, mean of 2 arrays, mostly near background
Baseline: not given
Direction: higher = stronger binding
Target sequence (chain): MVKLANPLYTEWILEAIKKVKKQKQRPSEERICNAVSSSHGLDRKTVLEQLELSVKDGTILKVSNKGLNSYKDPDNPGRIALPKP
`GCAAGATA` has an E-score of -0.121.
`CATAAGCC` has an E-score of 0.0335.
`AATGTCTG` has an E-score of -0.175.
With `AACTGGGT` the E-score was -0.236.
`GGCCGATA` gave an E-score of 0.307.
The E-score of `AACTACGC` is reported as 0.236.
With `TGCCCTAA` the E-score was -0.0687.
For `AGTTCACG`, the E-score was -0.0188.
For `CACTTGGG`, the E-score was -0.218.
The E-score of `ATGATTGG` is reported as -0.157.
The E-score of `AACCGACG` is reported as 0.318.
With `GTGGTCCA` the E-score was -0.114.
For `TCAAAGAA`, the E-score was -0.246.
The E-score of `CCACAGAG` is reported as -0.168.
The E-score of `AGGGTAAG` is reported as -0.207.
The E-score of `CTTCACTA` is reported as -0.256.
With `GGATTCAC` the E-score was -0.0846.

Sample 3
Target: RING finger protein unkempt homolog, zinc fingers 1-6, GST-SBP tag (UNK, Homo sapiens, UniProt Q9C0B0, residues 30-357)
UniProt Q9C0B0, sequence (30-357, looked up): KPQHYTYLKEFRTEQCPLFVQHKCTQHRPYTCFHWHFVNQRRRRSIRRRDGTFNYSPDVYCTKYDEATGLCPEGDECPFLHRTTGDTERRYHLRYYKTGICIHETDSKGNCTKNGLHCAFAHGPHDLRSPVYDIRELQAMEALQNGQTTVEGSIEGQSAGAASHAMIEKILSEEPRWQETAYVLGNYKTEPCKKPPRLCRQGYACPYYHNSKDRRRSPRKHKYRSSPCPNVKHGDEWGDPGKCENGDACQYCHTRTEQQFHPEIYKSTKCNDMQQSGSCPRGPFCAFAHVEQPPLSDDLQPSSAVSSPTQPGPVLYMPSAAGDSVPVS
Method: RNA Bind-n-Seq
Form: RNA
Medium: in vitro
Concentration: not given
Setting: RNA with constant flanks, human-mouse chimeric sites, ends assumed
Baseline: input RNA pool
Direction: higher = stronger binding
The bound/input enrichment of `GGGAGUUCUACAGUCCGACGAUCGGAAGUACAAUGAUGGAAAUAGAUGGCGAUAAAGGCAAGCAGGGCGGGCCCACCUACUACAUAGACACCAAUGCCCUCCGCGUGCCCAGGGAGAACAUGGAGGCCAUCUCACCACUCAAGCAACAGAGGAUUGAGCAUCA` is reported as 0.282 ratio.
`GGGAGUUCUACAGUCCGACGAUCGGAAUUGCUGAUUCAAGCAAGUUUGAAUAUCACAAUGUUAGCUUUCUAAUUCCAUAAAAGUACUUGGUUUUUACAGUUUAUAAUCUGACAUCACCCCAGCGCCAUUUGUAAAGAGCAACUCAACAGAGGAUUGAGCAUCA` has a bound/input enrichment of 0.451 ratio.
For `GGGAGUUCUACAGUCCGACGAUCAAAGAGUGGAUAGAGUGUGCACACGGGAUCGGUGGGACCCGGGCGAAAAAGGAGUGCAAGAUAGAGUUCGAUGACUUCGAAGAGUGCUUGCUUCGGUAGAAAACGAUGAGGCGAAUGCAUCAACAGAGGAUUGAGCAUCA`, the bound/input enrichment was 0.504 ratio.
`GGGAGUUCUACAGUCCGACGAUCCAGCGCCGAGGCCGCGGUUUCCCCCUGGGCCUCCCCAGCAGCAGCCAUGGGCAUCAAAUUUUUAGAAGUUAUUAAACCAUUCUGUGCAGUUCUACCAGAAAUUCAGAAGCCUGAAAGGAACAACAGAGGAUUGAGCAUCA` has a bound/input enrichment of 6.72 ratio.
`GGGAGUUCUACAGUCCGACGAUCCUGUGACCACAAGAUCCUACCUGAGUGGCAGCUGAAGUUGACUCCCUCUCCUUGCCUGAACCCCCCCCCACUGCCCCUUGAGUCCACAGUGUCGGCUGAGAUGUUGCCUCUGCACGGUUCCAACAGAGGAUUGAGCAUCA` has a bound/input enrichment of 1.1 ratio.
`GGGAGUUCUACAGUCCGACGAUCUUUGUAUUUAUGCUAAGCACACGUGCUGGUGGUCUUGGCAUCAAUCUUGCAACUGCUGAUGUAGUAAUUUUAUAUGACUCAGAUUGGAAUCCGCAAGUUGAUCUUCAGGCUAUGGACCGUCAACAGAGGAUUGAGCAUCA` has a bound/input enrichment of 0.269 ratio.
`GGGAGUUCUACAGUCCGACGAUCGGGUGGGUGGUCAUUGCCGUUUGAGCUGCUGAUUUUCAUGAGUCGCCUUCAAAACUCUCGUGUAGGGUUGACAAUGUGGGGGGGUGGGAAAUCUAGCUUAUUCUUUUAUUUUCAAGUCCACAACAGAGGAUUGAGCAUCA` gave a bound/input enrichment of 4.8 ratio.
The bound/input enrichment of `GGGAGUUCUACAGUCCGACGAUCAUAGAUGAAAUUGAUGUGGACCAGGAAGGAAUUGCAGAAAUGAUCCUGGAUGAAAAUGCUAUUGCUCAGGUCCCACGCCCUGGCACAUCUUUGAAGCUCCCUGGCACUAACCAAACAGGACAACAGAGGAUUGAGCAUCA` is reported as 0.314 ratio.
The bound/input enrichment of `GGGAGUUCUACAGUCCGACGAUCAAUUUCCUGUCAUACUUUUUAGACAUUCACAUCAGACUUACAGAGCACCUGGCCACAUUCUAGGUUUGUGUUAUUUCUCAGCUAUGGAUAUGAUCAAAGAGUGAAAAUGGCAGCCAGAUGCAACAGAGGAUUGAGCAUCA` is reported as 0.768 ratio.
`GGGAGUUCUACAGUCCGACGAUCGAUAAGAAAAGCUUGUUGGAGACCCGCUUGCAUGUCACUGGUAGAGACCUGAGGUGUAAAAUAGCUGAAACUUUCGGAUUUCAAGAAAAUUAUAUCAAGAUCGUAAUAAAUAAGAAACAGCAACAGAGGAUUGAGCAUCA` has a bound/input enrichment of 0.568 ratio.
`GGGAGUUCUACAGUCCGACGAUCGUCAACAGCUGCCUCAACCCCAUCCUCUACGCCUUCCUGGAUGAGAACUUCAAGGCCUGCUUUAGAAAGUUCUGCUGUGCAUCUGCCCUGCGCCGGGACGUGCAGGUGUCUGACCGCGUGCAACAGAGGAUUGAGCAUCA` gave a bound/input enrichment of 0.375 ratio.

Sample 4
Target: Protein C-ets-1 (ETS1, Homo sapiens, UniProt P14921, residues 1-441, full length assumed)
Method: protein-binding microarray
Form: double-stranded DNA, one strand shown
Medium: in vitro
Concentration: not given
Setting: k-mer, scored over probes, only values ≥0.25
Direction: higher = stronger binding
Residues (chain): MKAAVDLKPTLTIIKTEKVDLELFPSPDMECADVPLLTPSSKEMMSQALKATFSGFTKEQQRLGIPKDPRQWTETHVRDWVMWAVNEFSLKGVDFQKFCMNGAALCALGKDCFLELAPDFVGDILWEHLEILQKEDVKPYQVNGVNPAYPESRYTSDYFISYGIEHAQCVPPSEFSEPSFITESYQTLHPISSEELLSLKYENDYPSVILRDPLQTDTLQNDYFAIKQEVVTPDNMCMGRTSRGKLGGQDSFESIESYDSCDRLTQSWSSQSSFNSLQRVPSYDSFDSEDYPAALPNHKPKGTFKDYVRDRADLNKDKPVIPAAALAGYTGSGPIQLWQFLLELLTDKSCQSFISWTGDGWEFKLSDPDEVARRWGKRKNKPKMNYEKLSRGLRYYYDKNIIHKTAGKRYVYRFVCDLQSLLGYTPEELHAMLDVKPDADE
The E-score of `CCGGTCAG` is reported as 0.31.
`AAACGGAT` gave an E-score of 0.351.
For `CCGCATCC`, the E-score was 0.416.
`GTGCGGAA` has an E-score of 0.402.
`CTTCCAGC` gave an E-score of 0.313.
`GGGTGGGA` gave an E-score of 0.295.
With `CGTCTTCC` the E-score was 0.384.
`ATATTCCG` gave an E-score of 0.279.
With `ATCCGCAC` the E-score was 0.388.
`GGAAGAAC` gave an E-score of 0.339.
`AGATCCGC` gave an E-score of 0.253.
With `GGATGCGA` the E-score was 0.311.
With `AGTTTCCC` the E-score was 0.317.
`TCCGAGGA` gave an E-score of 0.256.

A few entries again (sample 1):
For `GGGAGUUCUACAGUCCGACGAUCCCUGUGCUACACAUCGUAUGUACCGAAUCGGGCCCCCCGGGGCCCCCCGGGGCCCCCCGGAAAGUAUUAUGUUACGCCGUUCGGAUCUGCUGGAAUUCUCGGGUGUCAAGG`, the log2 enrichment was -0.842.
The log2 enrichment of `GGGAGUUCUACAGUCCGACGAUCACCAUGCAGGUGGGCAUCUUUGGGAAGUGGGGCAAGGGGGGGAUAGGGAGGGGGAAAACACUUUGGGAACAGGUGGUCCCAGGUCGUUUCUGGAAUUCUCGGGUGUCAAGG` is reported as 0.664.
`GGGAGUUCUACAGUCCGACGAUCCACAGACAACACGCACCCACACAGACACAGAGGGAAGGGGUUGGGAUGGGUACAGGGUGCACAGCAGGGCGGGGUAGGACCCCAGCCCCUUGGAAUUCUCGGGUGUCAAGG` has a log2 enrichment of 1.32.
With `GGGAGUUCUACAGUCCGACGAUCUGGCCCUGGUGGCAUGCGGGGAGGAAGAGGUGGCCUCAUGGAUCGUGGUGGUCCCGGUGGAAUGUUCAGAGGUGGCCGUGGAGGAGACAGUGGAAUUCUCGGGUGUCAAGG` the log2 enrichment was -0.0381.
With `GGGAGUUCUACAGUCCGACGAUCACCAUGCAGGUGGGCAUCUUUGGGAAGUGGGGCAAGGGGGGGAUAGGGAGGGGGGUAACACUUUGCGAACAGGUGGUCCCAGGUCGUUUCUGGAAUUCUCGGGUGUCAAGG` the log2 enrichment was 1.04.
`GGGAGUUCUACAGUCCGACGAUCAAGUCCUGUGCUACACAUCGUAUGUACCGAAUCGGAAAAAAAGGAAAAAGGUUUGGAAAGUAUUAUGUUACGCCGUUCGGAUCUGCACUUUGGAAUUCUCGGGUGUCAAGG` gave a log2 enrichment of -1.44.
For `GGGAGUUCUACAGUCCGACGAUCUAACUUUAGAGGAGGAUCUGAUGCAUAUGGCAGUGGACGUGGAUUUGGGGAUGGCUAUAAUGGGUAUGGAGGAGGACCUGGAGGUGGCAAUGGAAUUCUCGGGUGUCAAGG`, the log2 enrichment was 0.498.
